Measurements collected from several papers.
Compare with care: the assays were run in different laboratories. “And” joins repeats or separate records; there may be more than shown. Numbers after ± are the reported error.
Genome polyprotein NS3 helicase domain: Genome polyprotein, NS3 helicase domain (Hepatitis C virus genotype 1b, UniProt Q9WMX2)
DRD3: D(3) dopamine receptor (DRD3, Homo sapiens, UniProt P35462)
Chain of UniProt P35462 (whole entry, looked up): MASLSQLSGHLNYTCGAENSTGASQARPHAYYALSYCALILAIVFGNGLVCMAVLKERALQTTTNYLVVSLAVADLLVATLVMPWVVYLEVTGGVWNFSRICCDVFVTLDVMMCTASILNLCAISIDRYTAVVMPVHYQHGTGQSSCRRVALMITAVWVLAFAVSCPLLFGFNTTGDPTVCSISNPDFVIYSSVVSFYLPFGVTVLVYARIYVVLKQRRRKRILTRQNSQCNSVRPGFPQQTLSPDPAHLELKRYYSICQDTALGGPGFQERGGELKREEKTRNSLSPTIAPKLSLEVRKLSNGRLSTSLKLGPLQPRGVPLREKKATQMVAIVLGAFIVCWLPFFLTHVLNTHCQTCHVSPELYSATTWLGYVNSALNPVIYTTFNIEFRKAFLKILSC
Glutamate receptor 2: Glutamate receptor 2 (Homo sapiens, UniProt P42262)
Chain of UniProt A4D1P6 (whole entry, looked up): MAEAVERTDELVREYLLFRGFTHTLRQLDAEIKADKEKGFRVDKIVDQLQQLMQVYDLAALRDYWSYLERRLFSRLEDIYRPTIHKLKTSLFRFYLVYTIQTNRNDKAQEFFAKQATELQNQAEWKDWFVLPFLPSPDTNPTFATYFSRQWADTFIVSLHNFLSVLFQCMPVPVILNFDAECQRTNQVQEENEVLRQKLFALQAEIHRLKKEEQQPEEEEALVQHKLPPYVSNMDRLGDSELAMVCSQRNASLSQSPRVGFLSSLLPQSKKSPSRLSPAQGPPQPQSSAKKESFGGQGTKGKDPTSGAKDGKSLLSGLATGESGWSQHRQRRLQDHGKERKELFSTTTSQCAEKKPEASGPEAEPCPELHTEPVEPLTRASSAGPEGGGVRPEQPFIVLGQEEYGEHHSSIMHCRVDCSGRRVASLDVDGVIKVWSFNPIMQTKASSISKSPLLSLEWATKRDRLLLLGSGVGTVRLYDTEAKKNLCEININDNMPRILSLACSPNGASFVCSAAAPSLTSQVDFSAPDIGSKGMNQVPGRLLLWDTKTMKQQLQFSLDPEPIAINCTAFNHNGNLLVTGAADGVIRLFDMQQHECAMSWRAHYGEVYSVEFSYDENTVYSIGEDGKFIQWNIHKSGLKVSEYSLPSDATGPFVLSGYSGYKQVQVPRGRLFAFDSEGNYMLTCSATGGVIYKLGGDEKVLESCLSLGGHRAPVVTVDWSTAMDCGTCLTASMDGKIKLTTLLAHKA
Chain of UniProt P42262 (whole entry, looked up): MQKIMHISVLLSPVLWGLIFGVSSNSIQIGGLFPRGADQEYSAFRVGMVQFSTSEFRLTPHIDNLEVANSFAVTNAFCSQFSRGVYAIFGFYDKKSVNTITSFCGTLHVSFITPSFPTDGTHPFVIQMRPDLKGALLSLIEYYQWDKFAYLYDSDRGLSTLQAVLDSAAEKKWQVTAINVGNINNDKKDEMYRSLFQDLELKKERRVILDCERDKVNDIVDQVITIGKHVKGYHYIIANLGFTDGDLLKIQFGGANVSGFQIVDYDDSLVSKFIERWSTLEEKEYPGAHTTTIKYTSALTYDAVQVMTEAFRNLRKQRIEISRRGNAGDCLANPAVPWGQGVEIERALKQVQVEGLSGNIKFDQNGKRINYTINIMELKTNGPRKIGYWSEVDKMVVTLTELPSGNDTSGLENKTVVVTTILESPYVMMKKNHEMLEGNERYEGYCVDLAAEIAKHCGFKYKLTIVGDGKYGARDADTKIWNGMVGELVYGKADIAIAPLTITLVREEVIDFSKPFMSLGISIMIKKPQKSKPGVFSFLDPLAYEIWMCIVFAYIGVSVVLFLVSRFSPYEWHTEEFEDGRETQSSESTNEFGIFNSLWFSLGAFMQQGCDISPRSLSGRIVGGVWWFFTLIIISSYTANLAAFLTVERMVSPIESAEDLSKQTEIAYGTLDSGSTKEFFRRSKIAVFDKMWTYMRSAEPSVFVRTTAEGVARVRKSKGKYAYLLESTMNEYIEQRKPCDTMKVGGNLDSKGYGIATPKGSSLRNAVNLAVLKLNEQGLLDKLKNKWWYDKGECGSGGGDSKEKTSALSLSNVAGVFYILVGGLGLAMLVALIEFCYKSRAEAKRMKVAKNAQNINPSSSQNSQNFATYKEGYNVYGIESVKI
Chain of UniProt Q9NYV4 (whole entry, looked up): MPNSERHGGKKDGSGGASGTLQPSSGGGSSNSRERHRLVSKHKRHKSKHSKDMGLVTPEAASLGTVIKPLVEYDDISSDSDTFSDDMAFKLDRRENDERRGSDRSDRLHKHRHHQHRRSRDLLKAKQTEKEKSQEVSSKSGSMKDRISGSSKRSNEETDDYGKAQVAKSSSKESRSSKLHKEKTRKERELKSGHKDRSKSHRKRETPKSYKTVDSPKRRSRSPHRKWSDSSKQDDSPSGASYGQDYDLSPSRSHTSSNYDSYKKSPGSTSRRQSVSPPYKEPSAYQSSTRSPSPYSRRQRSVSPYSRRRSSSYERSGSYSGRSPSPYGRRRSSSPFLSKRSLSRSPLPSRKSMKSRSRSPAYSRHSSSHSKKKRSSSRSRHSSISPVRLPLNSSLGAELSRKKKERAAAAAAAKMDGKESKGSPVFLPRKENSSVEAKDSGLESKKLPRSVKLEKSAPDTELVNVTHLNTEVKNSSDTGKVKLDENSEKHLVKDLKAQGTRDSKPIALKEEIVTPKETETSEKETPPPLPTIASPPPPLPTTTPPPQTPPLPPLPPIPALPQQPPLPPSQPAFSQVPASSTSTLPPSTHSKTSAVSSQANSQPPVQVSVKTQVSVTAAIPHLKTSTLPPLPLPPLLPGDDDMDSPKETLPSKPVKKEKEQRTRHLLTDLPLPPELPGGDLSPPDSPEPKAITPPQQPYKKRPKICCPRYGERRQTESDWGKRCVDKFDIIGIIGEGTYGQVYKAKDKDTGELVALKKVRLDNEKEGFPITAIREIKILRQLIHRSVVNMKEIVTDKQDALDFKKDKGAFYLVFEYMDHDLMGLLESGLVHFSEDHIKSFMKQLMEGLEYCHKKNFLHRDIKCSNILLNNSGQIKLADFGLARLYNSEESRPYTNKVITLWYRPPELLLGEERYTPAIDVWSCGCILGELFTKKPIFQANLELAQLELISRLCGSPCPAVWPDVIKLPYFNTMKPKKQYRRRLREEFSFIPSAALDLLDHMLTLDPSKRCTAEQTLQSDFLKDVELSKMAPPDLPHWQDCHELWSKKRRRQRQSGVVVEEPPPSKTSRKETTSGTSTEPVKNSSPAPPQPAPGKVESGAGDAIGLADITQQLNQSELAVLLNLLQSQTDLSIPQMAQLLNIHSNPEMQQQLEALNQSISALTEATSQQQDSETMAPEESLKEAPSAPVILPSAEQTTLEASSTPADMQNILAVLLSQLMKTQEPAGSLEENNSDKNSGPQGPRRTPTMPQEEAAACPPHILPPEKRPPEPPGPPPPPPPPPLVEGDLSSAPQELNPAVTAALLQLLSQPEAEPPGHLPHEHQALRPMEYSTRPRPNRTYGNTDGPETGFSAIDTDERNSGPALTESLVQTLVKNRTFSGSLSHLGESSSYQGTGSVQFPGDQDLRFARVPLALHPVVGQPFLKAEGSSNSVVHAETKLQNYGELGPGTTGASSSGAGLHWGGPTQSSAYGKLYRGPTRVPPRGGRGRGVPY
Chain of UniProt P51556 (whole entry, looked up): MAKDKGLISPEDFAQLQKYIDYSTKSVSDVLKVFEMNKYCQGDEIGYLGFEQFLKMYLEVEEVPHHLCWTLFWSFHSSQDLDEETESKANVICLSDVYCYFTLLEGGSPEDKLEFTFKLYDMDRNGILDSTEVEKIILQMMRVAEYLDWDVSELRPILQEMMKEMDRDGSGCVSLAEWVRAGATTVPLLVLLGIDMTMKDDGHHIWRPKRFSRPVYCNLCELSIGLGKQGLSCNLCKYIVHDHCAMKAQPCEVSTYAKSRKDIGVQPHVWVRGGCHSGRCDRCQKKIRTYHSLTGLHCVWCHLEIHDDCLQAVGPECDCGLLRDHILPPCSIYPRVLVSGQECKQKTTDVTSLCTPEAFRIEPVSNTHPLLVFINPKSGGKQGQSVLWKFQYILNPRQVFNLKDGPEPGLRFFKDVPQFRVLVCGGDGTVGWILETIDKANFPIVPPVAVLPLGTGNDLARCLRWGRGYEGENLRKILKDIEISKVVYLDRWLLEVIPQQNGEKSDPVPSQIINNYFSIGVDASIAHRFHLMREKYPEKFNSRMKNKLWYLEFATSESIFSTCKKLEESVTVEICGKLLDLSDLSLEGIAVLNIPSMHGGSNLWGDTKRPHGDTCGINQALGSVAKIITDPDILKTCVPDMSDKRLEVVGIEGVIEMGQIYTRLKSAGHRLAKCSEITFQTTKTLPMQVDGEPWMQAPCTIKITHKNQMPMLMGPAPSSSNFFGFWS
Chain of UniProt P30291 (whole entry, looked up): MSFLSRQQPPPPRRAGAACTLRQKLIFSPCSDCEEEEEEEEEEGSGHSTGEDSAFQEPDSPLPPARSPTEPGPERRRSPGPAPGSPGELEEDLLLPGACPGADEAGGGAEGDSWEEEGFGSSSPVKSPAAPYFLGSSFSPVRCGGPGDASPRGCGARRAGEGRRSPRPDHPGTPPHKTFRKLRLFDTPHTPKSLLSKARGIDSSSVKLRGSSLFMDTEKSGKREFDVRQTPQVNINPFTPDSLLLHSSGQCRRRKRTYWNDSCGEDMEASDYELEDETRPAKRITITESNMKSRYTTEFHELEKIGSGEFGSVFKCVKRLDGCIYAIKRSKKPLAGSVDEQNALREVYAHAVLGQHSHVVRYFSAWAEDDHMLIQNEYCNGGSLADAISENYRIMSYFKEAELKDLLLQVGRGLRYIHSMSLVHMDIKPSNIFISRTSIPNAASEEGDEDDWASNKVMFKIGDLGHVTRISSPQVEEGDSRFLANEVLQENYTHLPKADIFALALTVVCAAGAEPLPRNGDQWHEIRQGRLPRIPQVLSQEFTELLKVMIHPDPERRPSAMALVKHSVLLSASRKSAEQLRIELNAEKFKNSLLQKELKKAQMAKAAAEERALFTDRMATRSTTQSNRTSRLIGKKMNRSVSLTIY

Compound	target or system	test	test system	setting	scale	endpoint	result
O=C(O)CNC(=O)C(CS)Cc1ccccc1 (racemic)	Genome polyprotein NS3 helicase domain	DNA binding, inhibitor	hepatitis C virus	100 µM, added: Cy5-dT15 DNA		inhibition	0%
O=C(CN1CCO[C@H](COc2ccccc2)C1)N1CCc2ccccc21	DRD3	radioligand binding		concentration not given, added: [3H]N-methylspiperone		inhibition	17.5%
COc1ccc(-c2ncn(S(=O)(=O)c3cc(C(F)(F)F)cc(C(F)(F)F)c3)n2)cc1		reaction with N-acetyl-lysine, HPLC-MS		pH 10.2, added: N-α-acetyl-lysine		pseudo-first-order rate constant	0.6 h⁻¹
CN1CCN(CCCOc2ccc(=O)n(-c3ccc(Cl)c(Cl)c3)n2)CC1	alpha1 adrenergic receptor	radioligand binding		1.0 µM		inhibition	22.5 ± 2.65%
CC(C)C[C@H](NC(=O)C[C@H](O)[C@H](CC(C)C)NC(=O)[C@H](Cc1c[nH]cn1)NC(=O)CNC(=O)[C@@H](NC(=O)[C@H](C)NC(=O)[C@H](Cc1c[nH]c2ccccc12)NC(=O)[C@H](CCC(N)=O)NC(=O)[C@@H](Cc1ccccc1)NC(=O)COCCOCCNC(=O)CCC(C(=O)O)N1CCN(CC(=O)O)CCN(CC(=O)O)CCN(CC(=O)O)CC1)C(C)C)C(N)=O (stereo partly shown) [lutetium-177 labelled]			BALB/c nu/nu mice, bladder	intravenous, 750 pmol, 1 h, added: PA 300 µg		tissue uptake	51 ± 26 %ID/g
Cc1nc2sccn2c(=O)c1CCN1CCC(=C(c2ccc(F)cc2)c2ccc(F)cc2)CC1	Diacylglycerol kinase alpha (Rattus norvegicus, UniProt P51556)	kinase activity, inhibitor	HEK293T cell lysate	50 µM	relative to: DMSO	inhibition	~63%
Oc1cc2c(cc1O)CN(C(=S)NCCc1ccc(Cl)cc1)CCC2	Genome polyprotein NS3 helicase domain	DNA binding, inhibitor	hepatitis C virus	100 µM, added: Cy5-dT15 DNA		inhibition	0%
COc1c(C#N)cccc1CC(=O)Nc1ccc2c(c1)CCCN2C(=O)c1ccccc1	WD repeat-containing protein 91, residues 392–747 (Homo sapiens, UniProt A4D1P6)	SPR dose-response titration		concentration not given, 1:1 binding model		binding	104% and 103%
Cc1cc(C(C)(C)C)cc(C)c1CC1=NCCN1	Genome polyprotein NS3 helicase domain	DNA binding, inhibitor	hepatitis C virus	100 µM, added: Cy5-dT15 DNA		inhibition	1%
Cn1c(=O)c2[nH]cnc2n(C)c1=O	Glutamate receptor 2	ion current, negative allosteric modulator, SyncroPatch patch clamp	HEK293	10 µM		inhibition	2%
CC(C)Oc1c(NC(=O)c2ccc(NC(=O)[C@H](CC(N)=O)NC(=O)c3ccc(NC(=O)c4ccc(C#N)cc4)cc3)cc2)ccc(C(=O)Nc2ccc(C(=O)O)cc2)c1O	Escherichia coli ATCC 25922		neutropenic male CD-1 mice, kidney	iv then sc, 37.5 mg/kg/day, 24 h after infection, thigh infection model		concentration	2.43 ± 0.6 ng/mL
CC[C@@H]1[C@H](F)C(=O)N[C@@H]1COc1nccc2cc(C(N)=O)c(OC)cc12	EIF2AK4 (Homo sapiens, UniProt Q9P2K8)	ATP-site probe binding, ActivX profiling, refers to: GCN2	THP-1 cell lysate	0.01 mM, Lys2 site		inhibition	2%
Cn1cc(-c2ccc(-c3cncc(Cl)c3N3CCC4(CCNC4=O)CC3)cc2)cn1	COLO 205	gene expression, microarray, refers to: SOD1 mRNA		concentration not given, 6 h	relative to: untreated cells	log2 fold change	-2.29
CNCc1ccc(-c2[nH]c3cc(F)cc4c3c2CCNC4=O)cc1		refers to: Constipation	human patients	oral, dose not given, all grades, all doses		patients with adverse event	23.2%
CCN(CC)CCOC(=O)c1ccc(N)cc1	Genome polyprotein NS3 helicase domain	DNA binding, inhibitor	hepatitis C virus	100 µM, added: Cy5-dT15 DNA		inhibition	0%
CCCCCCCCCCCCCCCCCC1NCCc2cc(O)c(O)cc21 (stereo not shown)	tyrosinase	enzyme activity, inhibitor		100 µM, added: L-DOPA substrate		inhibition	3.97 ± 2.23%
CCN1CCN(Cc2ccc(NC(=O)c3ccc(C)c(/C=C/c4cnc5[nH]ccc5c4OC)c3)cc2C(F)(F)F)CC1	WEE1 (Homo sapiens, UniProt P30291)		A-375	concentration not given		inhibition	-0.134%
Cn1cc(-n2cnc3c(NCc4nc5cc(Cl)c(Cl)cc5[nH]4)nc(N4CCOCC4)nc32)cn1	Cyclin-dependent kinase 12, with cyclin K (CDK12, Homo sapiens, UniProt Q9NYV4)	kinase activity, inhibitor, ADP-Glo		0.0247 µM		inhibition	23.8%
c1csc(CNc2cc[nH]n2)c1	human peripheral blood lymphocytes (female)			1840 µg/mL, 4 h, initial, added: with S9		cells with structural aberrations	1%
CC(C)[C@H](NC(=O)[C@H](Cc1ccc(O)cc1)NC(=O)[C@H](Cc1ccc(O)cc1)NC(=O)[C@@H]1CCCN1C(=O)[C@H](CCC(=O)O)NC(=O)[C@H](CCC(=O)O)NC(=O)[C@H](Cc1c[nH]c2ccccc12)NC(=O)[C@@H]1CCCN1C(=O)[C@@H](NC(=O)[C@H](CCC(N)=O)NC(=O)c1ccc2c(c1)C(=O)OC21c2ccc(O)cc2Oc2cc(O)ccc21)C(C)C)C(=O)N[C@H](C(=O)N[C@@H](CCCCN)C(=O)N[C@@H](CCCCN)C(=O)N[C@@H](CO)C(=O)N[C@@H](CO)C(=O)NCC(=O)NCC(N)=O)C(C)C			human, plasma	intravenous infusion, 189.6 mg, 0.5 h		plasma concentration	16600 ng/mL
O=C1NC(=O)C(c2ccccc2)(c2ccccc2)N1	Glutamate receptor 2	ion current, negative allosteric modulator, SyncroPatch patch clamp	HEK293	3 µM		inhibition	7%
CCCCC1(C2CCCC2)Cc2cc(OCC(=O)O)c(Cl)c(Cl)c2C1=O (stereo in doubt)	Genome polyprotein NS3 helicase domain	DNA binding, inhibitor	hepatitis C virus	100 µM, added: Cy5-dT15 DNA		inhibition	0%
FC(F)(F)c1cc(Nc2nc(Cl)nc(Cl)n2)cc(C(F)(F)F)c1		reaction with N-acetyl-lysine, HPLC-MS		pH 10.2, added: N-α-acetyl-lysine		pseudo-first-order rate constant	8.1 h⁻¹
C=CCNc1ncnc2ccc(Br)cc12	Genome polyprotein NS3 helicase domain	DNA binding, inhibitor	hepatitis C virus	100 µM, added: Cy5-dT15 DNA		inhibition	0%
Cc1cc(-c2ccnc3[nH]cc(F)c23)cc(F)c1[C@@]1(O)[C@H](C)CN(C(=O)CN)C[C@@H]1C	CDK11 and CDK8	ATP probe binding, KiNativ, refers to: Lys2 site	HEK293T cell lysate	1 µM		inhibition	23.1%
CN(C(=O)n1cnc(-c2ccc[n+]([O-])c2)c1)C1CCCCC1	choline acetyltransferase	enzyme activity		concentration not given		inhibition	0.92%
O=C(NO)c1ccc(CN2CCCCc3ccccc32)c(F)c1	sigma-1 receptor	radioligand binding		10 µM, mean		inhibition	48.8%
Cc1ccc(OC[C@H]2CN(CCN3CCc4ccccc43)CCO2)cn1	DRD3	radioligand binding		concentration not given, added: [3H]N-methylspiperone		inhibition	37.7%

A few entries again:
Compound	target or system	test	test system	setting	scale	endpoint	result
Cn1cc(-c2ccc(-c3cncc(Cl)c3N3CCC4(CCNC4=O)CC3)cc2)cn1	COLO 205	gene expression, microarray, refers to: SOD1 mRNA		concentration not given, 6 h	relative to: untreated cells	log2 fold change	-2.29
O=C1NC(=O)C(c2ccccc2)(c2ccccc2)N1	Glutamate receptor 2	ion current, negative allosteric modulator, SyncroPatch patch clamp	HEK293	3 µM		inhibition	7%
CC(C)Oc1c(NC(=O)c2ccc(NC(=O)[C@H](CC(N)=O)NC(=O)c3ccc(NC(=O)c4ccc(C#N)cc4)cc3)cc2)ccc(C(=O)Nc2ccc(C(=O)O)cc2)c1O	Escherichia coli ATCC 25922		neutropenic male CD-1 mice, kidney	iv then sc, 37.5 mg/kg/day, 24 h after infection, thigh infection model		concentration	2.43 ± 0.6 ng/mL
